Published values pooled from the literature.
Compare with care: the assays were run in different laboratories. “And” joins repeats or separate records; there may be more than shown. Numbers after ± are the reported error.
Sequence of UniProt P05177 (whole entry, looked up): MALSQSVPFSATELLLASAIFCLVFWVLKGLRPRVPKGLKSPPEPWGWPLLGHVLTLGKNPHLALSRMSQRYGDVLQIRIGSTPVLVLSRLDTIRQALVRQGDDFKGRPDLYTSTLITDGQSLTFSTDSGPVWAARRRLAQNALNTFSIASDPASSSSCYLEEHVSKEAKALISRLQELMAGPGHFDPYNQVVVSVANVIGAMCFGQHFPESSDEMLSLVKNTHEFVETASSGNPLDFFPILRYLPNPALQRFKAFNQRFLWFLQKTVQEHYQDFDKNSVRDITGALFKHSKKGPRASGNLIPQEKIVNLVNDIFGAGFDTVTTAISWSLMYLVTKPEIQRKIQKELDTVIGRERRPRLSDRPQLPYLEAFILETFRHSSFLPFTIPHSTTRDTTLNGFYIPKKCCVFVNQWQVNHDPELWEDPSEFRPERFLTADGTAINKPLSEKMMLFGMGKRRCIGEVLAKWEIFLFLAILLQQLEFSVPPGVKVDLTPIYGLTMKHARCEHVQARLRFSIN

For CCCC[C@@H](CSS(=O)(=O)O)NCCC, the body weight was 30.8 g and 32 g and 33.1 g (Schistosoma mansoni; perfusion day 57; infected Swiss Webster mice; 100 mg/kg).
The Tmax of C=C(NC(=O)c1csc(-c2nc3c(cc2O)-c2nc(cs2)C(=O)NC(C(C)O)C(=O)NC(=C(C)OC)c2nc(cs2)C(=O)NC2c4nc(cs4)C(=O)NC(COC(=O)c4c5c6c(cccc6n4O)COC(=O)C(OC4CC(C)(O)C(N(C)C)C(C)O4)C2OC5)c2nc-3cs2)n1)C(N)=O (centres unmarked) is reported as 4.8 min (Sprague-Dawley rat, plasma; intravenous, 18 mg/kg, single dose, infusion).
CC(C)(C)NCCSS(=O)(=O)O has a body weight of 36.4 g and 30.9 g and 40 g (Schistosoma mansoni; perfusion day 57; infected Swiss Webster mice; 100 mg/kg).
N#C[C@@H]1CCCN1C(=O)CNC(=O)c1ccnc2ccc(OCCCN3CCN(C(=O)CCc4ccc5c(c4)CN4CCN(Cc6cc(CCC(=O)O)ccc6O)CC(=O)[O][Al-]([18F])([O]C(=O)C4)[O]5)CC3)cc12 (some centres unmarked) gave a tracer uptake of 0.76 %ID/g (U-87 MG tumour model; host not given, stomach; 2 h, tumour-bearing).
For Cc1cc(=O)c2c(O)c3c(O[C@@H]4O[C@H](CO)[C@@H](O)[C@H](O)[C@H]4O)cc(O)cc3cc2o1, the cell viability was 70.2 ± 15.1% (HK-2 co-cultured with HepaRG; MTT; 133.33 µM, 24 h; reference: untreated control).
N#C[C@@H]1CCCN1C(=O)CNC(=O)c1ccnc2ccc(OCCCN3CCN(C(=O)CCc4ccc5c(c4)CN4CCN6CC(=O)[O][68Ga-]([O]C(=O)C4)([O]5)[O]c4ccc(CCC(=O)N5CCN(CCCOc7ccc8nccc(C(=O)NCC(=O)N9CCC[C@H]9C#N)c8c7)CC5)cc4C6)CC3)cc12 has a tracer uptake of 3.54 %ID/g (U-87 MG tumour model; host not given, blood; 2 h, tumour-bearing).
Under “revertant fold increase”, O=C1C2CC3CC1CC(C(=O)N1CCN(c4ccc([N+](=O)[O-])c5ncccc45)CC1)(C3)C2 is recorded as 1.1 (Salmonella typhimurium; Ames test; TA97a; 0.78 µg/well, with S9; reference: vehicle).
CCN(CC)CC#CCNc1ccnc2cc(Cl)ccc12 gave a revertants of 3 revertants/well and 5 revertants/well (Salmonella typhimurium; mini-Ames test; TA1535; 500.0 µg/well, with rat liver S9).
COc1cccc(OC)c1-c1cc(C(=O)NC2(C(=O)O)C3CC4CC(C3)CC2C4)nn1-c1ccc(C(=O)NCCNC(=O)[C@H](CCCCNC(=O)[C@H](CC(C)C)NC(=O)C2OC2C(=O)O)NC(=O)CN2CCN(CC(=O)[O-])CCN(CC(=O)[O-])CCN(CC(=O)[O-])CC2)cc1C(C)C.[177Lu+3] (mixture of isomers) has a tracer uptake of 0.26 %ID/g (HT-29 tumour model; host not given, bone; 24 h, tumour-bearing).
For N#C[C@@H]1CC(F)(F)CN1C(=O)CNC(=O)c1ccnc2c(NC(=O)[C@H](CCCCNC(=O)CCOCCOCCOCCOCCOCCOCCNC(=O)CN3CCN(CC(=O)[O-])CCN(CC(=O)[O-])CCN(CC(=O)[O-])CC3)NC(=O)CCCc3ccc(I)cc3)cccc12.[177Lu+3], the tracer uptake was 7.12 %ID/g (U-87 MG tumour model; host not given, liver; 1 h, tumour-bearing).
For CNC(=O)C1CCCN(C(=O)C2CC3CCC2N3C(=O)[C@@H]2C[C@@H](O)CN2C(=O)NCc2cccc(Cl)c2F)C1 (mixture of isomers), the remaining activity was 97.4% and 102% and 93.1% (Cytochrome P450 1A2 (CYP1A2, Homo sapiens, UniProt P05177); preincubation without NADPH; human; 0.617 µM; reference: negative control).
Under “subjects with any TEAE”, CC[C@H](C)[C@@H]1NC(=O)[C@H](Cc2ccc(O)cc2)NC(=O)CCCSC[C@@H](C(=O)N(CC(=O)N[C@@H](CC(C)C)C(=O)NCC(N)=O)Cc2ccc(F)cc2)NC(=O)[C@H](CC(N)=O)NC(=O)[C@H](CCC(N)=O)NC1=O is recorded as 33% (human; intranasal, 15 µg single dose).
With COC(=O)Nc1nc2cc(C(O)c3ccc(F)cc3)ccc2[nH]1 (centres unmarked) the revertants was 19.7 revertants/plate (Salmonella typhimurium; Ames preincubation test; TA98; 437.5 µg/plate, without S9).
For CCCC[C@@H](CSS(=O)(=O)O)NC(C)C, the body weight was 32.4 g and 30.6 g and 33.8 g (Schistosoma mansoni; perfusion day 57; infected Swiss Webster mice; 100 mg/kg).
Under “revertant fold increase”, CC(C)OCCOCc1ccc(OCC(O)CN(N=O)C(C)C)cc1 (centres unmarked) is recorded as 0.7 fold (Salmonella typhimurium; Ames test; TA1537; 5000 µg/plate, 30 % rat S9; reference: solvent control).
N=C(N)NCCC[C@@H]1NC(=O)[C@H](CCCNC(=N)N)NC(=O)[C@@H](CCCNC(=N)N)NC(=O)[C@@H](CCCNC(=N)N)NC(=O)[C@@H](C(c2ccccc2)c2ccccc2)NC(=O)[C@@H](Cc2c[nH]c3ccccc23)NC(=O)[C@@H](C(c2ccccc2)c2ccccc2)NC1=O has a viability of 73% (human liver cells; MTS; 200 µg/mL, 24 h).
The tracer uptake of CC(C)Cc1ccc(C(C)C(=O)N[C@@H](CCCCNC(=O)CCOCCOCCOCCOCCOCCOCCNC(=O)CN2CCN(CC(=O)[O-])CCN(CC(=O)[O-])CCN(CC(=O)[O-])CC2)C(=O)Nc2cccc3c(C(=O)NCC(=O)N4CC(F)(F)C[C@H]4C#N)ccnc23)cc1.[177Lu+3] (some centres unmarked) is reported as 0.32 %ID/g (U-87 MG tumour model; host not given, muscle; 48 h, tumour-bearing).
For CN1CCCNC(=O)c2cccc(c2)C(=O)NCCCN(C)CCCNc2cccc3c2C(=O)c2cccc(c2C3=O)NCCC1, the viability was 100% (SAS; cell growth or viability, CCK-8; 1 nM, 48 h).
O=C1NC2(CC2)COc2ncc(F)cc2[C@H]2COCCN2c2ccn3ncc1c3n2: “relative population doubling” 81.5% (CHL cells; chromosomal aberration test; 75 µg/mL, 4 h, without S9 mix; reference: solvent control).
With CCCCC(CSS(=O)(=O)O)NCC(C)C (centres unmarked) the body weight was 32.2 g and 36.7 g and 29 g (Schistosoma mansoni; perfusion day 62; infected Swiss Webster mice; 100 mg/kg).
